Experimental data gathered from unrelated publications.
Lines come from different studies, so protocols differ.
B1: tnsD 1-318 (Escherichia coli, UniProt P13991); sequence looked up; chain MRNFPVPYSNELIYSTIARAGVYQGIVSPKQLLDEVYGNRKVVATLGLPSHLGVIARHLHQTGRYAVQQLIYEHTLFPLYAPFVGKERRDEAIRLMEYQAQGAVHLMLGVAASRVKSDNRFRYCPDCVALQLNRYGEAFWQRDWYLPALPYCPKHGALVFFDRAVDDHRHQFWALGHTELLSDYPKDSLSQLTALAAYIAPLLDAPRAQELSPSLEQWTLFYQRLAQDLGLTKSKHIRHDLVAERVRQTFSDEALEKLDLKLAENKDTCWLKSIFRKHRKAFSYLQHSIVWQALLPKLTVIEALQQASALTEHSITTR
B2: CCDC32 1-100 (Mus musculus, UniProt Q8BS39); chain MKMFESLDSSATKSGRDLWAEICSCLPSPAQEDVSDNAFSDSFMDSHPAGESHTAAADSAVQPAGKPWAPLHDSEVYLASLEKKLRRIKGLNEEVTSKDM
B3: CLNS1A 2-237 (Homo sapiens, UniProt P54105); sequence looked up; chain SFLKSFPPPGPAEGLLRQQPDTEAVLNGKGLGTGTLYIAESRLSWLDGSGLGFSLEYPTISLHALSRDRSDCLGEHLYVMVNAKFEEESKEPVADEEEEDSDDDVEPITEFRFVPSDKSALEAMFTAMCECQALHPDPEDEDSDDYDGEEYDVEAHEQGQGDIPTFYTYEEGLSHLTAEGQATLERLEGMLSQSVSSQYNMAGVRTEDSIRDYEDGMEVDTTPTVAGQFEDADVDH
B4: human Nup88; sequence looked up; chain AAAEGPVGDGELWQTWLPNHVVFLRLREGLKNQSPTEAEKPASSSLPSSPPPQLLTRNVVFGLGGELFLWDGEDSSFLVVRLRGPSGGGEEPALSQYQRLLCINPPLFEIYQVLLSPTQHHVALIGIKGLMVLELPKRWGKNSEFEGGKSTVNCSTTPVAERFFTSSTSLTLKHAAWYPSEILDPHVVLLTSDNVIRIYSLREPQTPTNVIILSEAEEESLVLNKGRAYTASLGETAVAFDFGPLAAVPKTLFGQNGKDEVVAYPLYILYENGETFLTYISLLHSPGNIGKLLGPLPMHPAAEDNYGYDACAVLCLPCVPNILVIATESGMLYHCVVLEGEEEDDHTSEKSWDSRIDLIPSLYVFECVELELALKLASGEDDPFDSDFSCPVKLHRDPKCPSRYHCTHEAGVHSVGLTWIHKLHKFLGSDEEDKDSLQELSTEQKCFVEHILCTKPLPCRQPAPIRGFWIVPDILGPTMICITSTYECLIWPLLSTVHPASPPLLCTREDVEVAESPLRVLAETPDSFEKHIRSILQRSVANPAFLKASEKDIAPPPEECLQLLSRATQVFREQYILKQDLAKEEIQRRVKLLCDQKKKQLEDLSYCREERKSLREMAERLADKYEEAKEKQEDIMNRMKKLLHSFHSELPVLSDSERDMKKELQLIPDQLRHLGNAIKQVTMKKDYQQQKMEKVLSLPKPTIILSAYQRKCIQSILKEEGEHIREMVKQINDIRNHVNF
B5: PduE (Salmonella enterica, UniProt O31042); sequence looked up; chain MNTDAIESMVRDVLSRMNSLQGDAPAAAPAAGGTSRSAKVSDYPLANKHPEWVKTATNKTLDDFTLENVLSNKVTAQDMRITPETLRLQASIAKDAGRDRLAMNFERAAELTAVPDDRILEIYNALRPYRSTKEELLAIADDLENRYQAKICAAFVREAAGLYVERKKLKGDD
B6: TOMM20 cytoplasmic domain, 25-145 (Homo sapiens, UniProt Q15388); N-terminal His-SUMO tag; chain CDRKRRSDPNFKNRLRERRKKQKLAKERAGLSKLPDLKDAEAVQKFFLEEIQLGEELLAQGEYEKGVDHLTNAIAVCGQPQQLLQVLQQTLPPPVFQMLLTKLPTISQRIVSAQSLAEDDVE
B7: human ribophorin I; sequence looked up; chain ASSEAPPLINEDVKRTVDLSSHLAKVTAEVVLAHLGGGSTSRATSFLLALEPELEARLAHLGVQVKGEDEEENNLEVRETKIKGKSGRFFTVKLPVALDPGAKISVIVETVYTHVLHPYPTQITQSEKQFVVFEGNHYFYSPYPTKTQTMRVKLASRNVESYTKLGNPTRSEDLLDYGPFRDVPAYSQDTFKVHYENNSPFLTITSMTRVIEVSHWGNIAVEENVDLKHTGAVLKGPFSRYDYQRQPDSGISSIRSFKTILPAAAQDVYYRDEIGNVSTSHLLILDDSVEMEIRPRFPLFGGWKTHYIVGYNLPSYEYLYNLGDQYALKMRFVDHVFDEQVIDSLTVKIILPEGAKNIEIDSPYEISRAPDELHYTYLDTFGRPVIVAYKKNLVEQHIQDIVVHYTFNKVLMLQEPLLVVAAFYILFFTVIIYVRLDFSITKDPAAEARMKVACITEQVLTLVNKRIGLYRHFDETVNRYKQSRDISTLNSGKKSLETEHKALTSEIALLQSRLKTEGSDLCDRVSEMQKLDAQVKELVLKSAVEAERLVAGKLKKDTYIENEKLISGKRQELVTKIDHILDAL
B8: ATG9 1-100 (Saccharomyces cerevisiae, UniProt Q12142); sequence looked up; chain MERDEYQLPNSHGKNTFLSRIFGLQSDEVNPSLNSQEMSNFPLPDIERGSSLLHSTNDSREDVDENDLRVPESDQGTSTEEEDEVDEEQVQAYAPQISDG
B9: nlpI (Escherichia coli, UniProt P0AFB1); sequence looked up; chain CSNTSWRKSEVLAVPLQPTLQQEVILARMEQILASRALTDDERAQLLYERGVLYDSLGLRALARNDFSQALAIRPDMPEVFNYLGIYLTQAGNFDAAYEAFDSVLELDPTYNYAHLNRGIALYYGGRDKLAQDDLLAFYQDDPNDPFRSLWLYLAEQKLDEKQAKEVLKQHFEKSDKEQWGWNIVEFYLGNISEQTLMERLKADATDNTSLAEHLSETNFYLGKYYLSLGDLDSATALFKLAVANNVHNFVEHRYALLELSLLGQDQDDLAESDQQ
B10: NOTCH4 276-511 (Homo sapiens, UniProt Q99466); sequence looked up; chain NPDNCVSHQCQNGGTCQDGLDTYTCLCPETWTGWDCSEDVDECETQGPPHCRNGGTCQNSAGSFHCVCVSGWGGTSCEENLDDCIAATCAPGSTCIDRVGSFSCLCPPGRTGLLCHLEDMCLSQPCHGDAQCSTNPLTGSTLCLCQPGYSGPTCHQDLDECLMAQQGPSPCEHGGSCLNTPGSFNCLCPPGYTGSRCEADHNECLSQPCHPGSTCLDLLATFHCLCPPGLEGQLCE
B11: GP1BA 17-306 D235Y/M239V (Homo sapiens, UniProt P07359); sequence looked up; chain HPICEVSKVASHLEVNCDKRNLTALPPDLPKDTTILHLSENLLYTFSLATLMPYTRLTQLNLDRCELTKLQVDGTLPVLGTLDLSHNQLQSLPLLGQTLPALTVLDVSFNRLTSLPLGALRGLGELQELYLKGNELKTLPPGLLTPTPKLEKLSLANNNLTELPAGLLNGLENLDTLLLQENSLYTIPKGFFGSHLLPFAFLHGNPWLCNCEILYFRRWLQDNAENVYVWKQGVYVKAVTSNVASVQCDNSDKFPVYKYPGKGCPTLGDEGDTDLYDYYPEEDTEGDKVR
B12: POL30 1-258 (Saccharomyces cerevisiae, UniProt P15873); chain MLEAKFEEASLFKRIIDGFKDCVQLVNFQCKEDGIIAQAVDDSRVLLVSLEIGVEAFQEYRCDHPVTLGMDLTSLSKILRCGNNTDTLTLIADNTPDSIILLFEDTKKDRIAEYSLKLMDIDADFLKIEELQYDSTLSLPSSEFSKIVRDLSQLSDSINIMITKETIKFVADGDIGSGSVIIKPFVDMEHPETSIKLEMDQPVDLTFGAKYLLDIIKGSSLSDRVGIRLSSEAPALFQFDLKSGFLQFFLAPKFNDEE
B13: HUS1 (Homo sapiens, UniProt O60921); sequence looked up; chain MKFRAKIVDGACLNHFTRISNMIAKLAKTCTLRISPDKLNFILCDKLANGGVSMWCELEQENFFNEFQMEGVSAENNEIYLELTSENLSRALKTAQNARALKIKLTNKHFPCLTVSVELLSMSSSSRIVTHDIPIKVIPRKLWKDLQEPVVPDPDVSIYLPVLKTMKSVVEKMKNISNHLVIEANLDGELNLKIETELVCVTTHFKDLGNPPLASESTHEDRNVEHMAEVHIDIRKLLQFLAGQQVNPTKALCNIVNNKMVHFDLLHEDVSLQYFIPALS
B14: EIF3J/GST 103-258 (Homo sapiens); Alexa Fluor 546 label; sequence looked up; chain EEPKVLTPEEQLADKLRLKKLQEESDLELAKETFGVNNAVYGIDAMNPSSRDDFTEFGKLLKDKITQYEKSLYYASFLEVLVRDVCISLEIDDLKKITNSLTVLCSEKQKQEKQSKAKKKKKGVVPGGGLKATMKDDLADYGGYDGGYVQDYEDFM
B15: aub (Drosophila melanogaster, UniProt O76922); sequence looked up; chain MNLPPNPVIARGRGRGRKPNNVEANRGFAPSLGQKSDPSHSEGNQASGGNGGGGDAQVGPSIEKSSLSAVQMHKSEGDPRGSVRGRRLITDLVYSRPPGMTSKKGVVGTHITVQANYFKVLKRPNWTIYQYRVDFTPDVEATRLRRSFLYEHKGILGGYIFDGTNMFCINQFKAVQDSPYVLELVTKSRAGENIEIKIKAVGSVQSTDAEQFQVLNLILRRAMEGLDLKLVSRYYYDPQAKINLENFRMQLWPGYQTSIRQHENDILLCSEICHKVMRTETLYNILSDAIRDSDDYQSTFKRAVMGMVILTDYNNKTYRIDDVDFQSTPLCKFKTNDGEISYVDYYKKRYNIIIRDLKQPLVMSRPTDKNIRGGNDQAIMIIPELARATGMTDAMRADFRTLRAMSEHTRLNPDRRIERLRMFNKRLKSCKQSVETLKSWNIELDSALVEIPARVLPPEKILFGNQKIFVCDARADWTNEFRTCSMFKNVHINRWYVITPSRNLRETQEFVQMCIRTASSMKMNICNPIYEEIPDDRNGTYSQAIDNAAANDPQIVMVVMRSPNEEKYSCIKKRTCVDRPVPSQVVTLKVIAPRQQKPTGLMSIATKVVIQMNAKLMGAPWQVVIPLHGLMTVGFDVCHSPKNKNKSYGAFVATMDQKESFRYFSTVNEHIKGQELSEQMSVNMACALRSYQEQHRSLPERILFFRDGVGDGQLYQVVNSEVNTLKDRLDEIYKSAGKQEGCRMTFIIVSKRINSRYFTGHRNPVPGTVVDDVITLPERYDFFLVSQAVRIGTVSPTSYNVISDNMGLNADKLQMLSYKMTHMYYNYSGTIRVPAVCHYAHKLAFLVAESINRAPSAGLQNQLYFL
B16: AEBP2 407-503 (Homo sapiens, UniProt Q6ZN18-2); sequence looked up; chain RHRAICFNLSAHIESLGKGHSVVFHSTVIAKRKEDSGKIKLLLHWMPEDILPDVWVNESERHQLKTKVVHLSKLPKDTALLLDPNIYRTMPQKRLKR
Sequence of UniProt G5EC37 (whole entry, looked up): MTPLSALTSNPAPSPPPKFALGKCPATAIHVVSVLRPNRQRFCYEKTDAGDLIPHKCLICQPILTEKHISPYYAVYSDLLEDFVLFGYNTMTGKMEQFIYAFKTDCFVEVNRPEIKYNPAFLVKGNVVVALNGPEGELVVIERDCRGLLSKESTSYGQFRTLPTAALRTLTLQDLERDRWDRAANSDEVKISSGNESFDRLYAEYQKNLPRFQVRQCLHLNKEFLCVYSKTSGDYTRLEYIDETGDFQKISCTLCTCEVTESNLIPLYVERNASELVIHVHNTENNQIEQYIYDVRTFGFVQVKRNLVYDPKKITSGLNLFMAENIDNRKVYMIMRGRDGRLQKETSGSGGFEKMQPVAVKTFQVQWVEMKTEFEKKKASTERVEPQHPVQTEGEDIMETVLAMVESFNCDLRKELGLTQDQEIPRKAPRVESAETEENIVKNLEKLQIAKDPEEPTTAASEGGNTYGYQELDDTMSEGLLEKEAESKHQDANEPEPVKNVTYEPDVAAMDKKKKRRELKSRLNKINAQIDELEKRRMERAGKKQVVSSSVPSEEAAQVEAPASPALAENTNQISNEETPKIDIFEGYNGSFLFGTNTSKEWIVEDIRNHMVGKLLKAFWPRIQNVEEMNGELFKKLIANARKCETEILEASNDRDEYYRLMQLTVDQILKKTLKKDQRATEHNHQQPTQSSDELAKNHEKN
Sequence of UniProt Q39011 (whole entry, looked up): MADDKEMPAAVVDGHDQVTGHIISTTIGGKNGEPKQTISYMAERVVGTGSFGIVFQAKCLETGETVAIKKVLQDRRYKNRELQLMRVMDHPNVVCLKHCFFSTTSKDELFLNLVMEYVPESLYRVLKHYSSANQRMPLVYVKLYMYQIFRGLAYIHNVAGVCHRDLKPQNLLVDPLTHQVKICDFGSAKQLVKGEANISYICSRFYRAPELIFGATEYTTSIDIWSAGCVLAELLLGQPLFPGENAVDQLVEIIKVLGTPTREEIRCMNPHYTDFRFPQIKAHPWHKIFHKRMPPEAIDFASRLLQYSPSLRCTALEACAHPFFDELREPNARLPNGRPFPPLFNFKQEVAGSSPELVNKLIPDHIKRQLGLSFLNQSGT
Sequence of UniProt P20936 (whole entry, unmodified, looked up): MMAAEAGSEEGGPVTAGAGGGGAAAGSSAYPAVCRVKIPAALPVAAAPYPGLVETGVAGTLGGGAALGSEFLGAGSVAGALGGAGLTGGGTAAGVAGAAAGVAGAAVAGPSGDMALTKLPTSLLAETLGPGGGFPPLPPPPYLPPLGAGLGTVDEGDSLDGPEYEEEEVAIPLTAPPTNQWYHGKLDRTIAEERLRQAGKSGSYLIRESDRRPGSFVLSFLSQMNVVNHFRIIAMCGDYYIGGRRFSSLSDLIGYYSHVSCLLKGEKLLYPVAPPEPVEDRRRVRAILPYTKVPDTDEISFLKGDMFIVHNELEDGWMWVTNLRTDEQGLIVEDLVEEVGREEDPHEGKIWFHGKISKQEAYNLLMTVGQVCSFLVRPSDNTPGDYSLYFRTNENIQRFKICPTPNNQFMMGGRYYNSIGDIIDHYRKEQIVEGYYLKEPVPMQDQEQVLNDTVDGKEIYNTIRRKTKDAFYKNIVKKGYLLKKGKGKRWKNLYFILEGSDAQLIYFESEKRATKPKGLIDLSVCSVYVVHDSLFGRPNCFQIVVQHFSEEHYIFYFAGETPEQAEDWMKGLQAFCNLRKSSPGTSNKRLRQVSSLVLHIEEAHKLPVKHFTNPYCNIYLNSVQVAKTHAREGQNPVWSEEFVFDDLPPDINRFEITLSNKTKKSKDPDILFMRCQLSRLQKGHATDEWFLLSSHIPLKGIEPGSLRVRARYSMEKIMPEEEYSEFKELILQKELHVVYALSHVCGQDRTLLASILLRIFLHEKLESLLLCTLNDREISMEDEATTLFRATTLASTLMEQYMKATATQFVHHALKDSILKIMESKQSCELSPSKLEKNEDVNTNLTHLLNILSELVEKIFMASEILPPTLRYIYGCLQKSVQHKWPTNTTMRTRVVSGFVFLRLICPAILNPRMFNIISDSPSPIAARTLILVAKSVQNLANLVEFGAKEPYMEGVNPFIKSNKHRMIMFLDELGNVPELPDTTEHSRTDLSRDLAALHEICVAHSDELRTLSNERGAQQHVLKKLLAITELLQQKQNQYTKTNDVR
Sequence of UniProt Q14152 (whole entry, looked up): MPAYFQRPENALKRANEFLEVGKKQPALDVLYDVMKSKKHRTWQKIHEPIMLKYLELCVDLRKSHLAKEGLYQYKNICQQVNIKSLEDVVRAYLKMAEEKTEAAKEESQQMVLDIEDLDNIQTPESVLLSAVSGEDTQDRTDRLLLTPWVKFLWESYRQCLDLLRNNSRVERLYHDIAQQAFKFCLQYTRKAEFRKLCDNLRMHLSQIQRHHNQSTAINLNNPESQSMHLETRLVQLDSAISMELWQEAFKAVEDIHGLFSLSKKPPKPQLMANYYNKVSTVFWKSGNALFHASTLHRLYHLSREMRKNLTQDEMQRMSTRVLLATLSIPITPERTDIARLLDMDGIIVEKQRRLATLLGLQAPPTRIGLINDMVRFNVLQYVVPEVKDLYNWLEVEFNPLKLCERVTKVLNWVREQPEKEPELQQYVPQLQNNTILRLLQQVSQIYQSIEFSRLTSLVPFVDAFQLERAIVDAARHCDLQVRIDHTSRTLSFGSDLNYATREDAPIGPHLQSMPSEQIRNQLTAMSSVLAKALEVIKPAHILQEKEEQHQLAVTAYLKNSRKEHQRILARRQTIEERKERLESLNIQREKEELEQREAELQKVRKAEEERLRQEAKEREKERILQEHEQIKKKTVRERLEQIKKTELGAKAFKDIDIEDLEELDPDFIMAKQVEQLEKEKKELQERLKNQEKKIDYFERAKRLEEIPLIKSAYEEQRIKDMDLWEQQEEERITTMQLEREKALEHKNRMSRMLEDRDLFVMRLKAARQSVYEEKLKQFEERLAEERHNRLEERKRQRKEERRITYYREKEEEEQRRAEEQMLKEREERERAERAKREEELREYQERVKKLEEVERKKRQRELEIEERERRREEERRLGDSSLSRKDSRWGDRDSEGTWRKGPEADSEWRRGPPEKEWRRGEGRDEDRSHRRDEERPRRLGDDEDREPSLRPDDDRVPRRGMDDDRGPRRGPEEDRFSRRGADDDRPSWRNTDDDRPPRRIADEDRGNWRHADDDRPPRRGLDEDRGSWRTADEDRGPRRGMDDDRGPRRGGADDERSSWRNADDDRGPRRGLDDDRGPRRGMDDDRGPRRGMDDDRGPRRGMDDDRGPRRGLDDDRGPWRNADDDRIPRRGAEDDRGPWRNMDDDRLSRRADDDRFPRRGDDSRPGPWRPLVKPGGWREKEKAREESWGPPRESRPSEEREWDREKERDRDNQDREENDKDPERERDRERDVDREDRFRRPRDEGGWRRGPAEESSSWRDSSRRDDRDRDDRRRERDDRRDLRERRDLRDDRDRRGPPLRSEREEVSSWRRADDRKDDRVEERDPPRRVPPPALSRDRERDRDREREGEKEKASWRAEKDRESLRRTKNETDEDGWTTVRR
Sequence of UniProt Q8IXI2 (whole entry, looked up): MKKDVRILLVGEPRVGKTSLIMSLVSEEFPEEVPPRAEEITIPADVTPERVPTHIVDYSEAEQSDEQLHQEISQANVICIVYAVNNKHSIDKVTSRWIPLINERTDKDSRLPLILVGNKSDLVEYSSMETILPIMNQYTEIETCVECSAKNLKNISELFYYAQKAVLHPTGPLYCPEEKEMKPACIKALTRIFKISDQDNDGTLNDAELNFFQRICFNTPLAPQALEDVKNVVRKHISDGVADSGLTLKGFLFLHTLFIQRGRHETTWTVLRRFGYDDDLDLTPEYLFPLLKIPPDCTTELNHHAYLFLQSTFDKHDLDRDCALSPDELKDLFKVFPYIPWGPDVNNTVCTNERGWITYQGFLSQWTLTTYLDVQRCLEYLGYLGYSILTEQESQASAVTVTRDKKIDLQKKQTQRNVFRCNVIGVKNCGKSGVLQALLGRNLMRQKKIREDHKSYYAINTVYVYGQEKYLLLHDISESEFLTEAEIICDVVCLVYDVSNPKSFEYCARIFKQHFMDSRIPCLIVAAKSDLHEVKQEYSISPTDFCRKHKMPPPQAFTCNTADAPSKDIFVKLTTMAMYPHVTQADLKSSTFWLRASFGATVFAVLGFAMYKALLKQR
Sequence of UniProt Q95XR4 (whole entry, looked up): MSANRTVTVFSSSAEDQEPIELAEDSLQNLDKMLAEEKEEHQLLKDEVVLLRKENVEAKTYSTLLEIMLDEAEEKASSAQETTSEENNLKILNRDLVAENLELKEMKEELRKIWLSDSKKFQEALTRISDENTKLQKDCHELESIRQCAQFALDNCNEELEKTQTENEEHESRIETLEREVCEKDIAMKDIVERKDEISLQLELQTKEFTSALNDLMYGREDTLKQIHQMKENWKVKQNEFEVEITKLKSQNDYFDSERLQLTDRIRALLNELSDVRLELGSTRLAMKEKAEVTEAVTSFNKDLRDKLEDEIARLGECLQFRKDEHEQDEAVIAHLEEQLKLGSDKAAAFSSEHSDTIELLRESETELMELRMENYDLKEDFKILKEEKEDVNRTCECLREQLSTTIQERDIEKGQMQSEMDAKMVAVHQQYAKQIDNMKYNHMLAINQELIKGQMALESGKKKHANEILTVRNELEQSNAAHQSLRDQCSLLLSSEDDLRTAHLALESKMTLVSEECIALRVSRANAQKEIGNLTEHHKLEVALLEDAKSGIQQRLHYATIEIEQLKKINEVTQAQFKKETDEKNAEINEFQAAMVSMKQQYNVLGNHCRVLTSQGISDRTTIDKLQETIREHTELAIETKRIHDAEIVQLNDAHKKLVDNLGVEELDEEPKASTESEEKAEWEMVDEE

B1 (tnsD 1-318)  binding (tnsC 1-503 A225V (Escherichia coli, UniProt P05846); native gel, EMSA; with: ATPγS): binds
B2 (CCDC32 1-100)  binding (Ap2m1 122-435 (Mus musculus, UniProt P84091); pull-down): binds
B3 (CLNS1A 2-237)  binding (PRMT5/WDR77 full length, hetero-octamer (Homo sapiens); SPR): binds
RKAKTKEGKGPNARRK (CHD4 258-273 (Homo sapiens, UniProt Q14839); sequence looked up)  binding (ATRX 1-321 D207A/D208A/D212A/D214A/D217A/E218A (Homo sapiens, UniProt P46100); ITC; peptide; 25 °C): binds
B4 (human Nup88)  phosphorylation log2 fold change (U2OS CYB5R4 knock-out; phosphoproteomics; concentration not given, with: cisplatin; baseline: untreated CYB5R4 knock-out U2OS): 6.91
B5 (PduE)  binding (PduG (Salmonella enterica Typhimurium LT2, UniProt O31043); cross-linking): binds
BIN2 (Arabidopsis thaliana, UniProt Q39011)  binding (PCK1 S62A/T66A (Arabidopsis thaliana, UniProt Q9T074); BLI; without ATP): binds
B6  binding (Fem1b (Mus musculus, UniProt Q9Z2G0); pull-down): binds
B7 (human ribophorin I)  log2 fold change (PP6C (human); co-immunoprecipitation, IP-MS; CYB5R4 knockout cells; concentration not given; baseline: CYB5R4 knockout over parental): 0.7
B8 (ATG9 1-100)  binding (ATG23 Y16E (UniProt Q06671); pull-down; 5 µM, 15 min, pH 8, 4 °C, NaCl 150 mM): binds
B9 (nlpI)  binding (prc K477A (Escherichia coli, UniProt P23865); cryo-EM): binds
B10 (NOTCH4 276-511)  binding (DLL4 27-400 G28S/F107L/I143F/H194Y/L206P (Homo sapiens, UniProt Q9NR61); SPR): binds
B11 (GP1BA 17-306 D235Y/M239V)  binding (VWF mature, plasma-derived (Homo sapiens, UniProt P04275); ELISA): binds
B12 (POL30 1-258)  binding (CTF18/CTF8/DCC1/RFC2/RFC3/RFC4/RFC5 clamp loader complex (Saccharomyces cerevisiae); cryo-EM): binds
DSVGLAVILHTDSR (PRKN 115-128 (Homo sapiens, UniProt O60260); sequence looked up)  binding (RHOT1 181-579 (Homo sapiens, UniProt Q8IXI2); competition with peptide, cross-linking; peptide): binds
epg-2 (Caenorhabditis elegans, UniProt Q95XR4)  binding (sepa-1 (Caenorhabditis elegans, UniProt G5EC37); pull-down): binds
B13 (HUS1)  binding (LIG1 233-919 (Homo sapiens, UniProt P18858); pull-down; 1 hr, 4 °C): binds
GFLSPAGNRPPPVSAHNSILKTAKGGQSASRGRIRFRADVPRGADESIEDNG (mel-28 1047-1098 (Caenorhabditis elegans, UniProt Q18508); sequence looked up)  binding (gsp-2 (Caenorhabditis elegans, UniProt P48727); pull-down): binds
B14 (EIF3J/GST 103-258)  binding (eIF3 octamer PCI/MPN core 5-654 (Homo sapiens, UniProt Q14152); EMSA): binds
DPSDYAEPMDAVVKPRNEEENIYSVPHDS (ARHGAP35 residues 1083-1111; pY1087/pY1105, N-acetyl, C-amide)  binding (RASA1 174-444 R194C/C236S/C261S/C372S/C402S (Homo sapiens, UniProt P20936); ITC; peptide): binds
B15 (aub)  binding (tud (Drosophila melanogaster, UniProt P25823); pull-down; not purified): binds
B16 (AEBP2 407-503)  binding (SUZ12/RBBP4 SUZ12 76-545 (Homo sapiens); pull-down; competition): binds
